# Results pooled from the literature.
# Every numbered part comes from another study and shows a few of its results, in no order.

# Study 1
# Target: Max dimerization protein 1, bHLH-zipper, MAX partner unstated (MXD1, Homo sapiens, UniProt Q05195, residues 56-136)
# Technique: protein-binding microarray
# Form: double-stranded DNA, one strand shown
# Sample: in vitro
# Tested at: not given
# Notes: k-mer, scored over probes, only values ≥0.25
# Reading: higher = stronger binding
# Target sequence (chain): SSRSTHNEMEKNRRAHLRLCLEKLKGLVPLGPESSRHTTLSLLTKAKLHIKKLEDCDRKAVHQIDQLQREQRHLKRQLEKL
Oligonucleotide,E-score
GTGGTTCA,0.304
AACACGGG,0.286
CATGCATC,0.306
ACATGCCG,0.385
CACGCGAG,0.379
ACACATGC,0.438
GACCATGC,0.444
CACGTTAC,0.374
ACCATGGA,0.254
CATGCAAC,0.37
ACGTGATC,0.331
AGCATGGG,0.397
CGTGGGCA,0.254
CATGGTAA,0.304
ACACCATG,0.346
CCATGCCC,0.351
ACCACGGG,0.29

# Study 2
# Target: Interferon regulatory factor 7, full length, phosphomimetic (IRF7, Homo sapiens, UniProt Q92985, residues 1-503, S471D/S472D/S475D/S476D/S477D/S483D/S484D/S487D)
# Sequence of UniProt Q92985 (whole entry, unmodified, looked up): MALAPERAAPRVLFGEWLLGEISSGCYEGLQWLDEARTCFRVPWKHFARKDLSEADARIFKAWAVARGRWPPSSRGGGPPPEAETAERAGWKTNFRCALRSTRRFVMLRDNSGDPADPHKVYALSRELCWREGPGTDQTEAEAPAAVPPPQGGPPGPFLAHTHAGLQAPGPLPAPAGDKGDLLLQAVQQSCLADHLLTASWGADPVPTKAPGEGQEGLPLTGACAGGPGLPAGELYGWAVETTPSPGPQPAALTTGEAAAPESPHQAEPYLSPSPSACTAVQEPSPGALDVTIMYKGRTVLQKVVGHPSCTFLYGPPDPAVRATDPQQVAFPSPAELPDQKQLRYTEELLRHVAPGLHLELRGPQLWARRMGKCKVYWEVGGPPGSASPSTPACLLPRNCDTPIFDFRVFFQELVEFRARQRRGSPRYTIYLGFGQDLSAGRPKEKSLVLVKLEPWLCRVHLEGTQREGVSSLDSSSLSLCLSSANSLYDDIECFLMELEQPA
# Technique: protein-binding microarray
# Form: double-stranded DNA, one strand shown
# Sample: in vitro
# Tested at: 2200 nM top
# Notes: 60-bp whole probe
# Added: salmon DNA 0.4 mg/ml
# Baseline: random background probes
# Reading: higher = stronger binding
# Shared flanks, not repeated: GCCTAGCAC … GTCTTGATTCGCTTGACGCTGCTG
Oligonucleotide,fitted relative affinity
TTAGATTTCGGGTTTCAATTAGTGCTA,4.29 z-score
TCAAGCTTTTCATTTTTTACTGTGCTA,0.858 z-score
GGCAGGCTTGCCAGTTCCCCGTGCTAG,-1.05 z-score
TCAGGTTTCAGATGCGTACTGTGCTAG,1.61 z-score
GACGATTTCAGTTTCGTGACGTGCTAG,4.48 z-score
GACGATCTCTGTCTCGAGACGTGCTAG,0.57 z-score
TCAGTTTTCATTTTCTGACTGTGCTAG,6.62 z-score
TCAGGTTTCACTTTCCAACTGTGCTAG,8.18 z-score
TTAGGTTTCGACACTGGGTTCGTGCTA,2.39 z-score
TTAGAACAGAGTCTCGATTAGTGCTAG,-0.523 z-score
TAGCATGTAATTTGTTTGCAGTGCTAG,0.216 z-score
GACGGTCTCGGTTTCGGTACGTGCTAG,5.17 z-score
TGAGGTCTCCTTTTCCTTTAGTGCTAG,1.7 z-score
TCATCCTCCTCTCTCTTACTGTGCTAG,2.39 z-score
TTAGGTATCGGGTATCAGTTAGTGCTA,0.513 z-score
GACGGAATGGGTATCGGGACGTGCTAG,-0.332 z-score
GACGGACTGGACTTTCGGCACGTGCTA,0.553 z-score
TTAGCTTTCCTTCTCCTTTAGTGCTAG,2.81 z-score
GACGAGATCGGGTTTCGAGACGTGCTA,1.42 z-score
CTTACTTCCCAATTGTCTTTGTGCTAG,3.09 z-score
TCCTTTATGTCCTGTCTACATGTGCTA,2.16 z-score
TCAAGTTGTACTTTCTAACTGTGCTAG,1.72 z-score
TCAACTCTCTACATGTGACTGTGCTAG,1.03 z-score
TTAGATCTCAGACTGAATTAGTGCTAG,-0.303 z-score
GACGGTCTCCTTATCATGACGTGCTAG,1.11 z-score

# Study 3
# Target: Sal-like protein 4, full length isoform A (SALL4, Homo sapiens, UniProt Q9UJQ4, residues 1-1053)
# Sequence of UniProt Q9UJQ4 (whole entry, looked up): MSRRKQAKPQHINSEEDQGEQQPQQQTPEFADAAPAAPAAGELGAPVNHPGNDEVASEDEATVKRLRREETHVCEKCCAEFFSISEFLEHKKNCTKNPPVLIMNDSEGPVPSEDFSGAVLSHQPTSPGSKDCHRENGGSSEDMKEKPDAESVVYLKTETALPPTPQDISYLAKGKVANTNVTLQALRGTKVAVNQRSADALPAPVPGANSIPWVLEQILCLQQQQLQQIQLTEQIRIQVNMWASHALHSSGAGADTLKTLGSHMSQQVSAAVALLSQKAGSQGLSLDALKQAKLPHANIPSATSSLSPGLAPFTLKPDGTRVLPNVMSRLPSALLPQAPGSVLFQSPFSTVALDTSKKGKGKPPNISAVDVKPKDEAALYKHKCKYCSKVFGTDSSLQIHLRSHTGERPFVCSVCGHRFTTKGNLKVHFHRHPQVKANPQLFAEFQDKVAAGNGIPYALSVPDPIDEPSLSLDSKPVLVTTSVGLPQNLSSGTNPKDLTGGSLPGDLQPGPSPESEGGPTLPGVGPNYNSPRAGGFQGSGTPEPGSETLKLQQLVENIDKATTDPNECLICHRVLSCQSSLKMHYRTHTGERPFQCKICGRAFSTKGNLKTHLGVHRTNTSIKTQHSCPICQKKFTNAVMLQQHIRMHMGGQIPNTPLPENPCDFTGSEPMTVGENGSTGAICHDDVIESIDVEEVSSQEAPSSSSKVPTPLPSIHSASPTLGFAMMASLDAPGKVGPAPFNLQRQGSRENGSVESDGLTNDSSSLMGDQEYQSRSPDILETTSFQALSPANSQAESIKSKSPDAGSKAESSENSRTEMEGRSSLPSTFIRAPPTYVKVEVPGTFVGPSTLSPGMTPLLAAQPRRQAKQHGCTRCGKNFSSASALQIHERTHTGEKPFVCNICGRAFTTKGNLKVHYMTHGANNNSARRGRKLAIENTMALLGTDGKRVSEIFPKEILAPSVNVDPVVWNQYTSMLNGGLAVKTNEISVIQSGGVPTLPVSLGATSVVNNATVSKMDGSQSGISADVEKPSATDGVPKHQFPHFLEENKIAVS
# Technique: universal PBM
# Form: double-stranded DNA, one strand shown
# Sample: in vitro
# Tested at: 600 nM
# Notes: 8-mer, flanks averaged, mean of replicates
# Reading: higher = stronger binding
Oligonucleotide,E-score
AGTGTACG,-0.0642
TCACCCCA,0.0257
CAAATAAG,0.148
AACACTGA,0.152
ACGGAACA,-0.0581
ACGAGCGT,-0.176
ACGATTGA,0.0305
ATAGCTGA,0.0723
GTGTGCTA,-0.0362
CGTGGATC,-0.173
CTCGACAA,0.082
GCGCGACA,-0.15
CGGCCAGA,-0.282
CGGGACCA,-0.372
AATATTGC,0.435
AGTTAAAA,0.284
ACAGCGTG,-0.0854
ACGCGCAT,-0.035
CATGAAAA,0.241
GGGATAGA,-0.0359
CAAGTTTA,0.161
CGTTGTCC,-0.0392
CCGCCGGA,-0.276
AAGCCCGG,-0.35
ACGTGACC,-0.176

# Study 4
# Target: Prothrombin, mature alpha-thrombin (F2, Homo sapiens, UniProt P00734)
# Technique: aptamer microarray, sandwich
# Form: DNA with 2'F-ANA
# Sample: in vitro
# Tested at: 200 nM
# Notes: whole 15-mer aptamer, many near background
# Added: Cy3 exosite-II aptamer, 400 nM
# Reading: higher = stronger binding
# Oligonucleotide: GGTTGGTGTGGTTGG
Modification,mean fluorescence intensity [a.u.]
2'F-ANA at 1 2 5 10 13 14,47.6
2'F-ANA at 3 15,1220
2'F-ANA at 1 6 9 14,53.6
2'F-ANA at 1 2 3 5 7 8 9 11 12 15,108
2'F-ANA at 2 3 4 5 6 10 15,123
2'F-ANA at 3 4 5 6 7 10 11 14 15,47.9
2'F-ANA at 2 4 5 11 14,70.8
2'F-ANA at 4 7 9 10 11 13 15,69.3
2'F-ANA at 1 3 4 6 7 9 11 12 15,248
2'F-ANA at 2 3 4 5 6 7 8 10 15,101
2'F-ANA at 2 3 5 6 9 10 12 14,48.8
2'F-ANA at 1 2 5 6 7 9 11,82.6
2'F-ANA at 5 7 12 13 14 15,50
2'F-ANA at 1 3 4 5 8 9 10 11 12 14 15,47.7
2'F-ANA at 1 3 4 5 6 7 10 11 12 13 14 15,88.7
2'F-ANA at 1 3 5 6 8 9 11 15,60.2
2'F-ANA at 2 3 5 8 9,135
2'F-ANA at 4 5 6 7 8 9 11 12 14,48.2

# Study 5
# Target: Histone acetyltransferase KAT6A, winged helix 1, GST fusion (KAT6A, Homo sapiens, UniProt Q92794, residues 1-85)
# Technique: protein binding microarray
# Form: double-stranded DNA, one strand shown
# Sample: in vitro
# Tested at: not given
# Notes: 8-mer, flanks averaged, mean of 2 arrays, mostly near background
# Baseline: not given
# Reading: higher = stronger binding
# Residues (chain): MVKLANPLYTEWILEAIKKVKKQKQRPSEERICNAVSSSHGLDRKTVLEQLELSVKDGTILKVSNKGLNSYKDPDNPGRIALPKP
Oligonucleotide,E-score
CTAACGGA,0.0625
GAGATGCA,-0.1
ACAATAGT,-0.0473
CATATTCA,-0.176
ATCATTCA,-0.0663
GTGCAATA,-0.0985
CTCATGAA,0.000335
CCTGCGCC,0.176
TCGCGGCA,0.41
AATACGCA,0.0661
AAAGCGAC,0.108
GGGGCGCA,0.239
TCGTGGAA,-0.0902
AACCGACA,-0.0462
CACACCCA,-0.165
CCAGAATA,-0.0968
CCAACCCA,-0.266
GATGGAGC,0.0329
CGACGTCA,0.0848
AACTCACC,-0.197
CGGAGGTA,-0.0499
CCGACTGA,0.0278
AAGACGTC,-0.0207

# Study 6
# Target: Centromere-binding protein 1, full length, His-tagged (CBF1, Saccharomyces cerevisiae, UniProt P17106, residues 1-351)
# Sequence of UniProt P17106 (whole entry, looked up): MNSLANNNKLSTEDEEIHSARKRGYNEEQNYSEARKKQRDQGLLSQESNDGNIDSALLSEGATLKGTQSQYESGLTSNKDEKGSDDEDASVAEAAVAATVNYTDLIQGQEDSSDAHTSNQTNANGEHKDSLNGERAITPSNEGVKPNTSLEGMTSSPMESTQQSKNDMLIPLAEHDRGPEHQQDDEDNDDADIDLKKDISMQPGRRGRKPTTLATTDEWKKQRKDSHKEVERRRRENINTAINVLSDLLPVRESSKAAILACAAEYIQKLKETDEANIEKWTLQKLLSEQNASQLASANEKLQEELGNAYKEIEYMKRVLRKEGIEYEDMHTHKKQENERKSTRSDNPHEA
# Technique: competition protein-binding microarray
# Form: double-stranded DNA, one strand shown
# Sample: in vitro
# Tested at: 2 µM
# Notes: whole 60-bp probe, lowest competitor level
# Added: Pho4 competitor, 0.05 µM
# Reading: higher = stronger binding
# Shared flanks, not repeated: … GTCTTGATTCGCTTGACGCTGCTG
Oligonucleotide,fluorescence intensity
TGTGTCATCTTCGCGCGCGTGCTAAAAAAAACGAAT,163 a.u.
CTTCTGTAAATTTGAAAGGTGGGTGGACGCGCCCCG,86.3 a.u.
CTTTCCCGATCTTGCTCCGTGGGTGTAGCACATTTG,72.6 a.u.
CGGGGTTAAGTTTGATCCGTGGGTGGCTTGCAGCAG,78.3 a.u.
TGCGCAACAACTTTTCACGTGAGATTATGTCTAGAA,1200 a.u.
CGTCCTAGCGATTGATCGGTGGGTGCCATGAGGAAG,66.5 a.u.
ATTTGGTTCGAGCGTCATGATTGCTAAGGAAGTTAA,53.2 a.u.
TGCTCCGTTGACATCTTCGTGGGTACTCATATCACT,51.8 a.u.
TGCATTTGCTTATTGAACGTGAAGTGGAATTGGGGC,96.3 a.u.
CGAGATATGGCTAGACACATGGCCACAATAATATCT,141 a.u.
GAAACCTTTTCCTCTTGCTCACCAGCTTCATTCTCG,56 a.u.
CTTTCCCGATCTTGGACTGTGGGTGTAGCACATTTG,78.2 a.u.
CAGAACGCCGCCTTCCCCGTGCGATGCAGGGTGCTA,59.9 a.u.
CTAACGAAGGTTTGGACCGTGGGTGACAAGCCAAGT,64 a.u.
AAAGCGGTAATTTGTCACATGACTTCACATATCTAT,3160 a.u.
TGCGCAACAACTTGGGGCGTGGGTGTATGTCTAGAA,57.5 a.u.
GGGGCTGTCCCGCCCCACGTGGACCGGCTCCCCGCT,372 a.u.
CATTGCGGCGGGCACCACATGAACTTCGTCAAGAAT,82.9 a.u.
CTTCTGTAAATTTGTCACACAACTTGACGCGCCCCG,92 a.u.
TGTTCTTCGTAGAAATGCATGCAGAAAAATTTTGAT,120 a.u.
CTTTCCCGATCTTTTCACGTGTAGTTAGCACATTTG,680 a.u.
CCGACCTTGTTGAAGTGCATGACAATACCGTCGTCC,88.5 a.u.
GGAAATAACGCTCGAGGCGTGCTTTGTCCTTTTTTG,78.3 a.u.
TGCGCAACAACTTGTATAGTGGGTGTATGTCTAGAA,74.5 a.u.
GCCCCAAAATACTGTCACAGTAAAGACCATGCTTGT,67.3 a.u.
